Earlier results, collected from citations in different studies.
Each numbered part shows a few of the values that one paper quotes.

Sample 1 — organism: Cryptosporidium parvum; technique: high-throughput screen; tested at: concentration not given
| SMILES | activity |
| --- | --- |
| Nc1ccn([C@@H]2CS[C@H](CO)O2)c(=O)n1 | inactive |
| CCOC(=O)N1CCC(=C2c3ccc(Cl)cc3CCc3cccnc32)CC1 | inactive |
| CO[C@@]1(NC(=O)Cc2cccs2)C(=O)N2C(C(=O)O)=C(COC(N)=O)CS[C@@H]21 | inactive |

Mixed results
| SMILES | target or system | read-out | technique | medium | tested at | endpoint | value |
| --- | --- | --- | --- | --- | --- | --- | --- |
| COc1cc(-c2cn(C3CCc4c(F)cccc4N(CC(F)(F)F)C3=O)nn2)ccc1-n1cnc(C)c1 (centres unmarked) | sodium channel site 2 | – | radioligand binding | – | – | IC50 | 1000 nM |
| COc1ccc(Cl)cc1C(=O)NCCc1ccc(S(=O)(=O)NC(=O)NC2CCCCC2)cc1 | – | – | – | human serum albumin | concentration not given | HSA binding, literature value | 99% |
| FC(F)(F)c1ccc2c(c1)nc(-c1cccnc1)n2C1CC1 | CYP11B2 (human) | cellular activity | – | – | – | IC50 | > 10000 nM |
| O=C(O)c1ccccc1 | – | – | – | human serum albumin | concentration not given | HSA binding, literature value | 34.3% |
| CCCOc1ccc([C@H]2[C@H](C(=O)O)[C@@H](c3ccc4c(c3)OCO4)CN2CC(=O)Nc2c(CC)cccc2CC)cc1 | EDNRB | – | cell-based | – | – | IC50 | 0.8 nM |
| CCCc1nn(C)c2c(=O)[nH]c(-c3cc(S(=O)(=O)N4CCN(C)CC4)ccc3OCC)nc12 | – | solubility in supercritical CO2 | – | – | – | crossover pressure | 24 MPa |
| O=C(N1CCS(=O)(=O)CC1)N1C[C@H](c2ccc(OC(F)(F)F)cc2)C[C@H](c2nc(C3CC3)no2)C1 | F2R | cellular activity | – | – | – | IC50 | 10 nM |
| CCOc1ccc(Cc2cc([C@@H]3O[C@H](CO)[C@@H](O)[C@H](O)[C@H]3O)ccc2Cl)cc1.C[C@H](O)CO.O | – | solubility in supercritical CO2 | – | – | – | crossover pressure | ~17 MPa |
